# Published values of several laboratories.
# Lines come from different studies, so protocols differ. Numbers after ± are the reported error.
SMILES,method,species,matrix,route,dose,time,tissue uptake
CC(F)C(=O)NCCOCCOCCOCC(=O)N[C@@H](CCC(=O)NCCCC[C@@H]1NC(=O)[C@@H](Cc2ccc(O)cc2)NC(=O)[C@H](CC(=O)O)NC(=O)CNC(=O)[C@H](CCCNC(=N)N)NC1=O)C(=O)NCCCC[C@@H]1NC(=O)[C@@H](Cc2ccc(O)cc2)NC(=O)[C@H](CC(=O)O)NC(=O)CNC(=O)[C@H](CCCNC(=N)N)NC1=O (stereo partly drawn) [fluorine-18 labelled],small-animal PET,"female athymic nude mice, U-87 MG xenograft",muscle,intravenous,3.7 MBq,60 min,0.31 ± 0.05 %ID/g
N=C(N)NCCC[C@@H]1NC(=O)[C@H](CCCCNC(=O)CON=C[C@H](F)[C@@H](O)[C@H](O)[C@H](O)CO)NC(=O)[C@@H](Cc2ccc(O)cc2)NC(=O)[C@H](CC(=O)O)NC(=O)CNC1=O [fluorine-18 labelled],,nude mice U-87 MG tumour,kidney,intravenous,,1 h,3.75 ± 1.42 %ID/g
O=C([O-])c1cccc(CN(CCN(Cc2cn(Cc3ccccc3)nn2)Cc2cccc(C(=O)[O-])n2)Cc2cn(Cc3ccccc3)nn2)n1.[64Cu+2],,healthy athymic nude mice,kidney,intravenous,,15 min,8.9 %ID/g
N=C(N)NCCC[C@H](NC(=O)[C@@H]1CSSC[C@H](NC(=O)[C@H](Cc2ccc3ccccc3c2)NC(=O)[C@H](CCCNC(=N)N)NC(=O)[C@H](CCCNC(=N)N)NC(=O)CN2CCN(CC(=O)O)CCN(CC(=O)O)CCN(CC(=O)O)CC2)C(=O)N[C@@H](Cc2ccc(O)cc2)C(=O)N[C@@H](CCCNC(N)=O)C(=O)N[C@@H](CCCCN)C(=O)N[C@H](CCCCN)C(=O)N2CCC[C@H]2C(=O)N[C@@H](Cc2ccc(O)cc2)C(=O)N[C@@H](CCCNC(=N)N)C(=O)N[C@@H](CCCNC(N)=O)C(=O)N1)C(N)=O [copper-64 labelled],,female athymic nude mice,spleen,intravenous,50 µCi,4 h,6.7 ± 0.86 %ID/g
CC(F)C(=O)NC[C@@H]1O[C@H](C(=O)N[C@@H](CCC(=O)NCCCC[C@@H]2NC(=O)[C@@H](Cc3ccc(O)cc3)NC(=O)[C@H](CC(=O)O)NC(=O)CNC(=O)[C@H](CCCNC(=N)N)NC2=O)C(=O)NCCCC[C@@H]2NC(=O)[C@@H](Cc3ccc(O)cc3)NC(=O)[C@H](CC(=O)O)NC(=O)CNC(=O)[C@H](CCCNC(=N)N)NC2=O)[C@H](O)[C@H](O)[C@H]1O (stereo partly drawn) [fluorine-18 labelled],small-animal PET,"female athymic nude mice, U-87 MG xenograft",kidney,intravenous,3.7 MBq,60 min,2.48 ± 0.63 %ID/g
CCCC[C@H](NC(=O)CNC(=O)CNC(=O)CN1CCN(CC(=O)O)CCN(CC(=O)O)CCN(CC(=O)O)CC1)C(=O)N[C@H]1CC(=O)NCCCC[C@@H](C(N)=O)NC(=O)[C@H](Cc2c[nH]c3ccccc23)NC(=O)[C@H](CCCNC(=N)N)NC(=O)[C@@H](Cc2ccccc2)NC(=O)[C@H](Cc2c[nH]cn2)NC1=O [gallium-67 labelled],,"female C57 mice, B16/F1 melanoma",heart,intravenous,0.037 MBq,0.5 h,1.64 ± 0.18 %ID/g
N=C(N)NCCC[C@@H]1NC(=O)[C@H](CCCCNC(=O)CC[C@H](NC(=O)CN2CCN(CC(=O)O)CCN(CC(=O)O)CCN(CC(=O)O)CC2)C(=O)NCCCC[C@@H]2NC(=O)[C@@H](Cc3ccccc3)NC(=O)[C@H](CC(=O)O)NC(=O)CNC(=O)[C@H](CCCNC(=N)N)NC2=O)NC(=O)[C@@H](Cc2ccccc2)NC(=O)[C@H](CC(=O)O)NC(=O)CNC1=O [gallium-68 labelled],,"female BALB/c nude mice, FaDu xenograft",salivary gland,intravenous,0.5 nmol/mouse,1 h,1.2 ± 0.3 %ID/g
CCCC[C@H](NC(=O)CNC(=O)CNC(=O)CN1CCN(CC(=O)O)CCN(CC(=O)O)CCN(CC(=O)O)CC1)C(=O)N[C@H]1CC(=O)NCCCC[C@@H](C(N)=O)NC(=O)[C@H](Cc2c[nH]c3ccccc23)NC(=O)[C@H](CCCNC(=N)N)NC(=O)[C@@H](Cc2ccccc2)NC(=O)[C@H](Cc2c[nH]cn2)NC1=O [lead-203 labelled],,C57 mice with metastatic melanoma,lung,intravenous,0.056 MBq,4 h,9.27 ± 1.13 %ID/g
CC(C)[C@H](NC(=O)[C@@H]1CCCN1C(=O)[C@H](CCCNC(=N)N)NC(=O)[C@H](CS)NC(=O)[C@H](Cc1c[nH]c2ccccc12)NC(=O)[C@H](CCCNC(=N)N)NC(=O)[C@@H](Cc1ccccc1)NC(=O)[C@H](Cc1c[nH]cn1)NC(=O)[C@H](CCC(=O)O)NC(=O)[C@H](CS)NC(=O)[C@H](CS)NC(=O)CNC(=O)[C@@H]1CC(=O)N[C@@H](CCCNC(=N)N)C(=O)NCC(=O)N[C@@H](CC(=O)O)C(=O)N[C@H](Cc2ccc(O)cc2)C(=O)N1)C(N)=O [technetium-99m labelled],,C57 mice B16/F1 melanoma female,intestines,iv,0.037 MBq,0.5 h,3.41 ± 0.23 %ID

# Repeated from above:
SMILES,method,species,matrix,route,dose,time,tissue uptake
N=C(N)NCCC[C@@H]1NC(=O)[C@H](CCCCNC(=O)CON=C[C@H](F)[C@@H](O)[C@H](O)[C@H](O)CO)NC(=O)[C@@H](Cc2ccc(O)cc2)NC(=O)[C@H](CC(=O)O)NC(=O)CNC1=O [fluorine-18 labelled],,nude mice U-87 MG tumour,kidney,intravenous,,1 h,3.75 ± 1.42 %ID/g
